Results of several laboratories.
A part holds a random share of what one study measured. Values joined by “and” are separate records of one study, mostly repeats; a detail may differ. ± gives the spread as reported.
Chain of UniProt P20794 (whole entry, looked up): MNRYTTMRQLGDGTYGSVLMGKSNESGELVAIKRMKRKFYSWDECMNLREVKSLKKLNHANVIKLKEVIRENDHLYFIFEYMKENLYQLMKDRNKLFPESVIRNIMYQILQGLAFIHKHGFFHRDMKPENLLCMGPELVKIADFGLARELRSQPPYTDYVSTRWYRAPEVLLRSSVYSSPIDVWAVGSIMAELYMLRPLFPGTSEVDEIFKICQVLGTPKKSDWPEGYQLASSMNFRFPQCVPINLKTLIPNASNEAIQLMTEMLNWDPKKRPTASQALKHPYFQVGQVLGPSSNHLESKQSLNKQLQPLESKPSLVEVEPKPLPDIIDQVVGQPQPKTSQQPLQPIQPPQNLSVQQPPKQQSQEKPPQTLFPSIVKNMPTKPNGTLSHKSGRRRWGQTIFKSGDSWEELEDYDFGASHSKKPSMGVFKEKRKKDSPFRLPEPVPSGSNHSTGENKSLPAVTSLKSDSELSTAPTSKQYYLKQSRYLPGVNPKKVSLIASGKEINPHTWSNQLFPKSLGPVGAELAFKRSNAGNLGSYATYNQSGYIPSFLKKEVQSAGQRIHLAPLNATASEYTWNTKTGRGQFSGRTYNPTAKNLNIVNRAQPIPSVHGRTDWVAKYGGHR
Chain of UniProt P57078 (whole entry, looked up): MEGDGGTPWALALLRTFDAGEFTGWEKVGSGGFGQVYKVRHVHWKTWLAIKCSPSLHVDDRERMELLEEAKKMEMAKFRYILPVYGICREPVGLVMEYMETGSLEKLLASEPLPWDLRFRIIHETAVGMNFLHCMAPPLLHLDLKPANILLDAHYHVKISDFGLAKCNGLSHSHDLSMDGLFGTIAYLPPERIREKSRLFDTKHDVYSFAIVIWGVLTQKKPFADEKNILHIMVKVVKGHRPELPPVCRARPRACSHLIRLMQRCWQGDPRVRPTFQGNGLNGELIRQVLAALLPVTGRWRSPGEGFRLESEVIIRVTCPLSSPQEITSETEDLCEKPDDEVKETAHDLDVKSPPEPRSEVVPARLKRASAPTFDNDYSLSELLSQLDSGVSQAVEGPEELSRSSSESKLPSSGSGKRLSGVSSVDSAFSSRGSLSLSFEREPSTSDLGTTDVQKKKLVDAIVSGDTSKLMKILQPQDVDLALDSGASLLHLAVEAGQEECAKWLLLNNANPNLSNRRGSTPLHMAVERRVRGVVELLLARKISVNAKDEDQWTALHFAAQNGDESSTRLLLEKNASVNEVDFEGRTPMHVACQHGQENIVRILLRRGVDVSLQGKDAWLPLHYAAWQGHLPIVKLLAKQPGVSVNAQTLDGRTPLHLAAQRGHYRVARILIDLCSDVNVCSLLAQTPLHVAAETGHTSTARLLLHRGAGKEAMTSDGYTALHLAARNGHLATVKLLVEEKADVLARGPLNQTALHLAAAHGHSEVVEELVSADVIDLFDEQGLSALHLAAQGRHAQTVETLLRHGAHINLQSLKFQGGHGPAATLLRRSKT

Series 1
Compound: O=C(Nc1cnn(-c2csc(C(=O)NC3COC3)c2)c1)Nc1c(F)cccc1Cl
Observed: enzyme activity
Tested at: 5 µM
Baseline: untreated control
Endpoint: remaining activity
target = SRPK3 (Homo sapiens, UniProt Q9UPE1); value = 85.7%
target = PRKCA (Homo sapiens, UniProt P17252); value = 90.3%
target = MAK (Homo sapiens, UniProt P20794); value = 96.4%
target = STK39 (Homo sapiens, UniProt Q9UEW8); value = 74.8%
target = LYN (Homo sapiens, UniProt P07948); value = 93.3%
target = SIK3 (Homo sapiens, UniProt Q9Y2K2); value = 93.3%
target = DDR1 (Homo sapiens, UniProt Q08345); value = 84.3%
target = TSSK6 (Homo sapiens, UniProt Q9BXA6); value = 92.6%
target = PKN1 (Homo sapiens, UniProt Q16512); value = 94.2%
target = HASPIN (Homo sapiens, UniProt Q8TF76); value = 108%

Series 2
Structure (SMILES): C=CCc1ccc(O)c(-c2ccc(O)c(CC=C)c2)c1
Observed: chloride current
Technique: whole-cell voltage clamp
Endpoint: IC50
ANO1 D383A/del476-501: Anoctamin-1 (ANO1, Homo sapiens, UniProt Q5XXA6, D383A/del476-501)
Chain of UniProt Q5XXA6 (whole entry, unmodified, looked up): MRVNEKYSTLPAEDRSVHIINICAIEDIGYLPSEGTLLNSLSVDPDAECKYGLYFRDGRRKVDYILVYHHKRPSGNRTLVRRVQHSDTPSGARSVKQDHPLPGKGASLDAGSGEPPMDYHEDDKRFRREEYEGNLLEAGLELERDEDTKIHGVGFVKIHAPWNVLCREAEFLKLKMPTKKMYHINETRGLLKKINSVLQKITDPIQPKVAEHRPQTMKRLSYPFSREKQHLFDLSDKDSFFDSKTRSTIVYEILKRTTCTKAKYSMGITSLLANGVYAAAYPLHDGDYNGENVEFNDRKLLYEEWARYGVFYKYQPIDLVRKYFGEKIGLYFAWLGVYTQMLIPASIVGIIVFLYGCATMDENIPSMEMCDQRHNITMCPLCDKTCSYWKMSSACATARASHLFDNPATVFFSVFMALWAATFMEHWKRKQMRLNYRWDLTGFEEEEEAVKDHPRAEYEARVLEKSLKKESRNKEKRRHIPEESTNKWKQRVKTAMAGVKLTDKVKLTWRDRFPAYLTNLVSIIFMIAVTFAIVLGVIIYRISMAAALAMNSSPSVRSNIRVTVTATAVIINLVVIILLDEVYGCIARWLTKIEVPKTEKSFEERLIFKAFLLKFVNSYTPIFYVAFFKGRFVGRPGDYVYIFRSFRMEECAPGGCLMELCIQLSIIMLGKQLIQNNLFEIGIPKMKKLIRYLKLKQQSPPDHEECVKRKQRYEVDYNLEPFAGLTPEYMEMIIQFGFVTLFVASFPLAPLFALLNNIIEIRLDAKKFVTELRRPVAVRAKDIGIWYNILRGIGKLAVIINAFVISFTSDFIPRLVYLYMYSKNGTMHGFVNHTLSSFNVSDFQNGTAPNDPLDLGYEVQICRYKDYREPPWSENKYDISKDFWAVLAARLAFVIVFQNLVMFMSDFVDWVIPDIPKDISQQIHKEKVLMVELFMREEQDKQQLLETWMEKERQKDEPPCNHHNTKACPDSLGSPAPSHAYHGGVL
ANO1 del476-501/F627A: Anoctamin-1 (ANO1, Homo sapiens, UniProt Q5XXA6, del476-501/F627A)
target = Anoctamin-1 (ANO1, Homo sapiens, UniProt Q5XXA6, del476-501); setting = membrane voltage 60 mV, with: 300 nM Ca2+; value = 4.02 µM
target = Anoctamin-1 (ANO1, Homo sapiens, UniProt Q5XXA6, del476-501/R561A); setting = membrane voltage -60 mV; value = 6.54 µM
target = ANO1 D383A/del476-501; setting = membrane voltage -20 mV; value = 7.27 µM
target = ANO1 D383A/del476-501; setting = membrane voltage -80 mV; value = 15.8 µM
target = Anoctamin-1 (ANO1, Homo sapiens, UniProt Q5XXA6, del476-501/R631D); test = inhibitor; setting = R605D mutant at -80 mV; value = 18.5 µM
target = Anoctamin-1 (ANO1, Homo sapiens, UniProt Q5XXA6, del476-501/F807A); test = inhibitor; setting = mutant F781A at 100 mV, with: 300 nM Ca2+; value = 18.4 ± 0.5 µM
target = Anoctamin-1 (ANO1, Homo sapiens, UniProt Q5XXA6, del476-501/F803I); test = inhibitor; setting = mutant F777I at 100 mV, with: 300 nM Ca2+; value = 8.87 µM
target = ANO1 del476-501/F627A; setting = membrane voltage -20 mV; value = 5.53 µM
target = Anoctamin-1 (ANO1, Homo sapiens, UniProt Q5XXA6, del476-501/F807I); test = inhibitor; setting = F781I mutant at 60 mV; value = 6.38 µM
target = ANO1 del476-501/F627A; setting = membrane voltage 60 mV; value = 6.49 µM

Series 3
Structure (SMILES): CO[C@@H](C)c1c(Nc2ccc([C@@H](N(C)C(=O)C3CCS(=O)(=O)CC3)C(F)(F)F)cc2)cnc2cc(Cl)nn12
Observed: cell-free assay
Technique: competition with immobilised ligand
Tested at: 1 µM
Endpoint: remaining binding
target = MAK (Homo sapiens, UniProt P20794); value = 100%
target = IKBKB (Homo sapiens, UniProt O14920); value = 100%
target = MAP3K3 (Homo sapiens, UniProt Q99759); value = 100%
target = EPHB3 (Homo sapiens, UniProt P54753); value = 100%
target = PIP5K1A (Homo sapiens, UniProt Q99755); value = 89%
target = NEK2 (Homo sapiens, UniProt P51955); value = 94%
target = Myosin-IIIb (MYO3B, Homo sapiens, UniProt Q8WXR4); value = 100%
target = CDK15 (Homo sapiens, UniProt Q96Q40); value = 94%
target = MAPK13 (Homo sapiens, UniProt O15264); value = 100%
target = RIPK4 (Homo sapiens, UniProt P57078); value = 100%
target = MAPK12 (Homo sapiens, UniProt P53778); value = 92%
target = PIP5K1C (Homo sapiens, UniProt O60331); value = 100%
target = ROCK1 (Homo sapiens, UniProt Q13464); value = 100%
target = PIK3CA (Homo sapiens, UniProt P42336); value = 92%

Series 4
Target: DNA polymerase theta, ATPase domain (POLQ, Homo sapiens, UniProt O75417)
Chain of UniProt O75417 (whole entry, unmodified, looked up): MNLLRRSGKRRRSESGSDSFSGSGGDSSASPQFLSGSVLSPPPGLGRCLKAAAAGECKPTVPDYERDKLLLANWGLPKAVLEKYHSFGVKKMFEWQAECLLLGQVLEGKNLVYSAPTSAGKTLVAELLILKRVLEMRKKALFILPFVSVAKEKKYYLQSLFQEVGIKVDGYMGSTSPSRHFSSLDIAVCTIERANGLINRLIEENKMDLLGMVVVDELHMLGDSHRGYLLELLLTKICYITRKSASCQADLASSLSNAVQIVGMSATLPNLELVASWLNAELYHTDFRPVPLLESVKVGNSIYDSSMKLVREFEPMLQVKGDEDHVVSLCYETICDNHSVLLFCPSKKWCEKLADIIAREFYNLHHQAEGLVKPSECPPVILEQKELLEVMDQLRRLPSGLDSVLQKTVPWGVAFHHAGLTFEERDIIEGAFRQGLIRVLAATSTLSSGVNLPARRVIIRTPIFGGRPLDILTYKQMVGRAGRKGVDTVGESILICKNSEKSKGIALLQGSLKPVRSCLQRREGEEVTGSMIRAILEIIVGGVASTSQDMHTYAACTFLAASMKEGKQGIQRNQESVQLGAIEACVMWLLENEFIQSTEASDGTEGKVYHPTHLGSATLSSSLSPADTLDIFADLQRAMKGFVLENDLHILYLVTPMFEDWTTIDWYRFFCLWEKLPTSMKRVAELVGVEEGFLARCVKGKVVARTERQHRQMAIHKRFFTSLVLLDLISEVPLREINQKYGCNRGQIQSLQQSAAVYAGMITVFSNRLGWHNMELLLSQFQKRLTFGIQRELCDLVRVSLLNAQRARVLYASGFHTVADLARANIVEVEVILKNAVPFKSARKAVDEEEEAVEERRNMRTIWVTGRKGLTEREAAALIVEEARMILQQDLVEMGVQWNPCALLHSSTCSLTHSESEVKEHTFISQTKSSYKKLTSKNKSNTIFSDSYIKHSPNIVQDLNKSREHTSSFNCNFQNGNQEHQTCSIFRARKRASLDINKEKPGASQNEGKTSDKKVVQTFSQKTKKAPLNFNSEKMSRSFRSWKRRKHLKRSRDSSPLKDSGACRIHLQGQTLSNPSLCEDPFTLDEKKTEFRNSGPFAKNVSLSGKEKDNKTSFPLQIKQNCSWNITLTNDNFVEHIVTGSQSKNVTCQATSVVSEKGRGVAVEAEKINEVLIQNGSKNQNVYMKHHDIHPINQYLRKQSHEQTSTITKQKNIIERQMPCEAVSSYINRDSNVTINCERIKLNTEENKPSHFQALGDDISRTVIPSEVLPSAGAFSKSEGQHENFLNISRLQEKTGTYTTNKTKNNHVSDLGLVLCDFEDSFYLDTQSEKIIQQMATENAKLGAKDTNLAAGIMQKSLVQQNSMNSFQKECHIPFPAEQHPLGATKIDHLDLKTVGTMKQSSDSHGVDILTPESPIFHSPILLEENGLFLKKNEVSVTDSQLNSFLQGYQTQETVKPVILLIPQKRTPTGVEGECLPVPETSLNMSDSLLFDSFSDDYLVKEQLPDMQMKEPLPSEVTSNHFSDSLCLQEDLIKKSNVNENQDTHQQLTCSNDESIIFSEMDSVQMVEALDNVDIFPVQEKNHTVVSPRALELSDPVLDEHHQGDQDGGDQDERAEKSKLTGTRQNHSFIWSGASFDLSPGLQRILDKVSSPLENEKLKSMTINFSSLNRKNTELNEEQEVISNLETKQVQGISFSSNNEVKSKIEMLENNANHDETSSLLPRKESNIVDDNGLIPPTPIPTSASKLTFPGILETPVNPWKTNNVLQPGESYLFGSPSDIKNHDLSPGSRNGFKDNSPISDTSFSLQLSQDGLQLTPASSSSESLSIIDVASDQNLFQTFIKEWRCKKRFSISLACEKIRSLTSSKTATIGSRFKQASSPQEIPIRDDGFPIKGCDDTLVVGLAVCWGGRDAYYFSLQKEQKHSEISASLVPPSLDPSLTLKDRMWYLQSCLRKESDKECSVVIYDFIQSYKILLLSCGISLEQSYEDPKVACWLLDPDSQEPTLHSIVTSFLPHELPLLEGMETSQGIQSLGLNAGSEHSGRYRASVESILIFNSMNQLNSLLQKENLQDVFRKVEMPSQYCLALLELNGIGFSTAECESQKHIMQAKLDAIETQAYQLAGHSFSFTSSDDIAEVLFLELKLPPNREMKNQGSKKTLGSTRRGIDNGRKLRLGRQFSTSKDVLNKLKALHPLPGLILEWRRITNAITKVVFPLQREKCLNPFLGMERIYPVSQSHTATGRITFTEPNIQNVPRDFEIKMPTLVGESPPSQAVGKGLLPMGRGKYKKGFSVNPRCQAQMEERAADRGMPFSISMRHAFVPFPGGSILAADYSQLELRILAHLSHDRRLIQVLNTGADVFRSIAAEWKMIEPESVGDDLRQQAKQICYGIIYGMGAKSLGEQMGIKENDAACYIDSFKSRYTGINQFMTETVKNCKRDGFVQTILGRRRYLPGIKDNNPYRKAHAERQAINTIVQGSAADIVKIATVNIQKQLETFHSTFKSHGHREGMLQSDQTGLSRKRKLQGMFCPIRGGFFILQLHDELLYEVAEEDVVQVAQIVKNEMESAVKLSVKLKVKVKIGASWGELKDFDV
Observed: enzyme activity
Action: inhibitor
Tested at: 77 µM
Baseline: untreated
Endpoint: remaining activity
SMILES = Clc1ccc(C(Cn2ccnc2)OCc2c(Cl)cccc2Cl)c(Cl)c1 (stereo not shown); value = 102%
SMILES = CN(C)CCC[C@@]1(c2ccc(F)cc2)OCc2cc(C#N)ccc21; value = 96.3%
SMILES = COc1ncc(-c2ccc3nccc(-c4ccnnc4)c3c2)cc1NS(=O)(=O)c1ccc(F)cc1F; value = 95%
SMILES = CN(C)CCOC(C)(c1ccccc1)c1ccccn1 (stereo not shown); value = 98.4% and 102%
SMILES = O=C(O)c1cc(-c2ccc(F)cc2F)ccc1O; value = 79.6%
SMILES = C[C@@H]1CC(=O)NN=C1c1ccc(NN=C(C#N)C#N)cc1; value = 78.6%

A few entries again (series 2):
target = Anoctamin-1 (ANO1, Homo sapiens, UniProt Q5XXA6, del476-501); setting = membrane voltage 60 mV, with: 300 nM Ca2+; value = 4.02 µM
target = Anoctamin-1 (ANO1, Homo sapiens, UniProt Q5XXA6, del476-501/R561A); setting = membrane voltage -60 mV; value = 6.54 µM
target = ANO1 D383A/del476-501; setting = membrane voltage -20 mV; value = 7.27 µM
target = ANO1 D383A/del476-501; setting = membrane voltage -80 mV; value = 15.8 µM
